Assay results of several laboratories.
Parts stem from different laboratories: compare values within a part only.

Series 1
Target: Sal-like protein 4, full length isoform B (SALL4, Homo sapiens, UniProt Q9UJQ4-2, residues 1-616)
Method: universal PBM
Form: double-stranded DNA, one strand shown
Medium: in vitro
Tested at: not given
Setting: 8-mer, flanks averaged, mean of replicates
Reading: higher = stronger binding
Measurement: E-score
Construct (chain): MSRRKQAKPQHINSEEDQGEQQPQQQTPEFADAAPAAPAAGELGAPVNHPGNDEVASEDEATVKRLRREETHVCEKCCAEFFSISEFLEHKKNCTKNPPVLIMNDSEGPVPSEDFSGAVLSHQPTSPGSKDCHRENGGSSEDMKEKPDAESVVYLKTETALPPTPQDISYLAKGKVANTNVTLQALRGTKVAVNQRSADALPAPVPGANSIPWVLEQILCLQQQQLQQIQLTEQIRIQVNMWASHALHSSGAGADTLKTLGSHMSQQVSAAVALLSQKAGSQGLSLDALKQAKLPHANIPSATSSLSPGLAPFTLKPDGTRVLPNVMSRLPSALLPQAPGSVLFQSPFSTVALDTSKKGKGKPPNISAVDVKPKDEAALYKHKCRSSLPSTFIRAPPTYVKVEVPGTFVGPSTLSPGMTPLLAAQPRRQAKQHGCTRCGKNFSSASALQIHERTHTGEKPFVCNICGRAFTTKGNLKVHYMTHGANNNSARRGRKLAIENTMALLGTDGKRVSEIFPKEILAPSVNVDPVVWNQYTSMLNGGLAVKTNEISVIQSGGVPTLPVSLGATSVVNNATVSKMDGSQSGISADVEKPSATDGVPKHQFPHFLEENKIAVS
CTAATCAC: 0.211
AGACACGA: 0.0469
GCTAGTAA: 0.105
ACTTATAA: 0.354

Series 2
Target: Histone acetyltransferase KAT6A, winged helix 1, GST fusion (KAT6A, Homo sapiens, UniProt Q92794, residues 1-85)
Method: protein binding microarray
Form: double-stranded DNA, one strand shown
Medium: in vitro
Tested at: not given
Setting: 8-mer, flanks averaged, mean of 2 arrays, mostly near background
Reference: not given
Reading: higher = stronger binding
Measurement: E-score
Target sequence (chain): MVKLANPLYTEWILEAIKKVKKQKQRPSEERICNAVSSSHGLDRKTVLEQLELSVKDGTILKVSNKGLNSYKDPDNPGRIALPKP
AAGTCCAG: -0.22
ACCAGCTC: -0.161
CAGCGATA: -0.0136

Series 3
Target: Interferon regulatory factor 5, full length, phosphomimetic (IRF5, Homo sapiens, UniProt Q13568-2, residues 1-514, S451D/S453D/S456D/S462D)
Method: protein-binding microarray
Form: double-stranded DNA, one strand shown
Medium: in vitro
Tested at: 940 nM top
Setting: 60-bp whole probe
Added: salmon DNA 0.4 mg/ml
Reference: random background probes
Reading: higher = stronger binding
Measurement: fitted relative affinity
GCCTAGCACTCATATTTAAGGCTAGGACTGTGCTAGGTCTTGATTCGCTTGACGCTGCTG: -0.158 z-score
GCCTAGCACGACGGTCTCGGTGTCGGGACGTGCTAGGTCTTGATTCGCTTGACGCTGCTG: 2.79 z-score
GCCTAGCACTTAGGACTGGACTATCAGTTAGTGCTAGTCTTGATTCGCTTGACGCTGCTG: -0.721 z-score

Mixed results
PhoQ, residues 284 288 289 292 302 303 SSCCRF  fold induction (PhoP, residues 12 14 15 18 19 FWNTL (Escherichia coli, UniProt P23836); Sort-seq, item: YFP reporter; E. coli; PhoQ-PhoP variant library, added: 10 µM Mg2+; reference: high Mg2+ state, higher = stronger signaling): 12.5

For quick reference, copied from above (mixed results):
PhoQ, residues 284 288 289 292 302 303 SSCCRF  fold induction (PhoP, residues 12 14 15 18 19 FWNTL (Escherichia coli, UniProt P23836); Sort-seq, item: YFP reporter; E. coli; PhoQ-PhoP variant library, added: 10 µM Mg2+; reference: high Mg2+ state, higher = stronger signaling): 12.5
